Assay results pooled from the literature.
Parts stem from different laboratories: compare values within a part only.

Set 1
Target: Probable WRKY transcription factor 33, N-terminal DNA-binding domain (WRKY33, Arabidopsis thaliana, UniProt Q8S8P5, residues 169-264)
Technique: DNA-protein interaction ELISA
Form: double-stranded DNA, one strand shown
Sample: in vitro, bacterial lysate
Concentration: not given
Setting: whole dsDNA probe, crude lysate protein
Reference: highest signal in screen
Reading: higher = stronger binding
Quantity: relative absorbance
Target sequence (chain): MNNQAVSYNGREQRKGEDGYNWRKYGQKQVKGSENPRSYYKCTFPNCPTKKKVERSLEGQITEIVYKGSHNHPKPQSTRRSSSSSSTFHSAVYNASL
AAAAAATAGTACCGCTAATGGCTGACAAAA: 22.1 % of maximum
AAAAAATCAACCATTATGGTATTACTAAAA: 30.6 % of maximum
AAAAAACTAACCGTCGCAGGCGTGTGAAAA: 22 % of maximum
AAAAAAATCACGGTTCGACCTCCAGCAAAA: 15.1 % of maximum
AAAAAACTCGACATAGAATGCGGAAAAAAA: 20.3 % of maximum
AAAAAATTAGCTTATCCTTGCTTGTGAAAA: 26.4 % of maximum
AAAAAAGGGTTTAGATGTCCTTCAAAAAAA: 19.6 % of maximum
AAAAAAGTGTTAGATTGTAGTTGATAAAA: 20.7 % of maximum
AAAAAATCTTCACCTCACTTCGGTTTAAAA: 21.1 % of maximum
AAAAAACTCGTACATCTATCGCTACGAAAA: 23.3 % of maximum
AAAAAAACTCTAGGTCAATATTATTCAAAA: 25.6 % of maximum
AAAAAATGTTTTTTAGAGGTGTGCAAAAAA: 21.6 % of maximum
AAAAAAATCAGCCTGACTCTGGGCGTAAAA: 23.5 % of maximum
AAAAAATGGTCGTCGTACTCGTGGTCAAAA: 59.2 % of maximum
AAAAAAAAAAAAAAAAAAAAAAAAAAAAAA: 18.1 % of maximum
AAAAAATGCCATTGTACCTGTGTTCGAAAA: 25.2 % of maximum
AAAAAATTTGTTCGGGCTCATAACTGAAAA: 23.5 % of maximum
AAAAAAGGTTGGTACGTCGAGTTCTTAAAA: 15.5 % of maximum

Set 2
Target: Fragile X messenger ribonucleoprotein 1, C-terminal low-complexity region (Fmr1, Mus musculus, UniProt P35922)
Technique: RNA Bind-n-Seq
Form: RNA
Sample: in vitro
Concentration: 200 nM
Setting: whole 134-nt RNA, ends assumed
Together with: 150 mM LiCl
Reference: input library
Reading: higher = stronger binding
Quantity: log2 enrichment
Each molecule: 7-deaza-guanosine replaces G
All sequences stand within: GGGAGUUCUACAGUCCGACGAUC … UGGAAUUCUCGGGUGUCAAGG
GCAGGAAGUAAAAACAAAUGGAAAUGCUUCAGAUAGUGGCAGGGGUGGGGGUUGCUAAGGAAAGGGUGGGAUGGGAGUGGGUAAAGAGUU: 1.39
AAGUCCUGUGCUACACAUCGUAUGUACCGAAUCGGGGUGGGGAGGGGUUUUUGGGGAAAGUAUUAUGUUACGCCGUUCGGAUCUGCACUU: -0.757
UUGGAGGUGGAUUUUGUUUAUUUUUUUAGCUCAUUUCCAGGGGUGGGAAUUUUUUUUUAAUAUGUGUCAUGAAUAAAGUUGUUUUUGAAA: -0.97
GUGCUACACAUCGUAUGUACCGAAUCGGGGCCCCCCCGGGGCCCCCCCGGGGCCCCCCCGGGGAAAGUAUUAUGUUACGCCGUUCGGAUC: -2.62
AGUCCUGUGCUACACAUCGUAUGUACCGAAUCGGAAAAAGGAAAAAGGAAAAAAAGGAAAGUAUUAUGUUACGCCGUUCGGAUCUGCACU: -1.74
GUCCUGUGCUACACAUCGUAUGUACCGAAUCGGGGAAAAAAGGAAAAAAGGAAAAAAGGAAAGUAUUAUGUUACGCCGUUCGGAUCUGCA: 0.0339
CUGUGCUACACAUCGUAUGUACCGAAUCGGGAAAAAAAGGGUUUUUUUGGGAAAAAAAGGGAAAGUAUUAUGUUACGCCGUUCGGAUCUG: -1.86
UUUGCUGAUUUCUGGCUGGCGGAUCAGCUGAACAGCCUGUCAGUGAUACUGAUGGACCUGGAAUAUAUGAUCUGCUUCUACAGUUUGGAG: -3.67

Set 3
Target: Sal-like protein 4, full length isoform B (SALL4, Homo sapiens, UniProt Q9UJQ4-2, residues 1-616)
Technique: universal PBM
Form: double-stranded DNA, one strand shown
Sample: in vitro
Concentration: not given
Setting: 8-mer, flanks averaged, mean of replicates
Reading: higher = stronger binding
Quantity: E-score
CGTTTTGA: 0.03
AAGATCTC: 0.0425
CGGCTGGC: -0.342
CGCCTTCA: -0.0945
CTATTCCA: 0.12
CTCCCCCC: -0.212
GATTCGTA: 0.0938
ATTTGGCG: 0.112
GCCCGTTA: -0.0862
GACTCATC: -0.108
CCACCTCC: -0.121
AAATTTGA: 0.296
CAACGAAA: 0.201
CCGGTTCA: -0.257
ATCAGGAC: -0.137
CGCCGGTC: -0.374
ACCGGTAC: -0.147
CATTCGAC: 0.04
ATTAATAA: 0.471
TATGCTGA: 0.15
CCCTTGAC: -0.198
GTGTGCAA: 0.00841
AAGTAAGG: 0.128
GCCACTGA: -0.167
GGGCGTTA: -0.00438

Set 4
Target: RNA binding protein fox-1 homolog 2, RRM domain, GST-SBP tag (RBFOX2, Homo sapiens, UniProt O43251-10, residues 100-194)
Technique: RNA Bind-n-Seq
Form: RNA
Sample: in vitro
Concentration: 365 nM
Setting: natural RNA segment, single round, ends assumed
Reference: no-protein control
Reading: higher = stronger binding
Quantity: RBNS enrichment (R)
All sequences stand within: GGGAGUUCUACAGUCCGACGAUC … UGGAAUUCUCGGGUGCCAA
Residues (chain): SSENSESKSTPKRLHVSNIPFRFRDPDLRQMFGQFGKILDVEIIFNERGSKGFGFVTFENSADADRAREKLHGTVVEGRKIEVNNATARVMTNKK
UAGGAUGGAGGAGACAGAGGUCUGUUGUCAUCUACUGUCGCUGGGUAAUAAGGAGGGAGCUCUGGACUCAAAGCAGCUGGCUUCCACAGCUGAAGGUUUUACAUUACGUU: 0.984
UUUAAAGUGUUUUCCUUAAUGUUCUCUGAAAACAAGUUUCUUUUGUAGUUUUAACCAAAAAAGUGCCCUUUUUGUCACUGGAUUCUCCUAGCAUUCAUGAUUUUUUUUUC: 1.13
CACAACCUUAUGUGUACAUGACCUGAACAUAGGAUCUGUUCUAUACAUACUGGAAUAUGUUUUAACAUAUGCCCCACCAUCCUGACUCACACGGAAGCACGGGUCUCUUC: 0.271
AGAUUUUAUUUUUAAUUUAUCUCUGUGACCUGCCAGGGAGAGGAGAGAAAGAAAUGCUGUGAGCACAUGACAAAAUAAAAUCAAAUAAAAUGGAUGAUUCAGCUUAAGUG: 0.436
UCUUGUUUUUGUUAAUUUAUUGGAACUCUGUAUAAGGCCAUAUUUUAGUGGCUGUCUGAAACCCCAUGUGUGAAGGGCCCCUUGCCCAACAGGGUUGAGGUGGGGAGCAA: 0.353
GCCUCUCCAGGCCAGCUCCUCUGCCCACAUGUCAUACAAGGUGUGAAUUUGAGCACAGUCCAGAAAUGGAGACAUCCCACCCCCAGUUGAAUAAUGGCCCAUUCAUGCCA: 0.273
UAAGAAAUGUGAUGUAGCCGGGCGUGGUGGCACACGCCUUUAAUCCCAGCACUUGGGAGGCAGACGCAGGUGAAUUUCUGAGUUUGAGGCCAGCCUGGUCUACAGAGUGA: 0.399
AAUAGAGACGCUGCUUCUCCCUCGCCUGGUGCCGCCCCCGCCGGGCAGGGGCCAUCCACCCGCCCCAGGACCAGCCCUCAGGGAGGGGAAACGGCCGAGAGCCCCCCCCC: 0.424

Some of these lines once more (set 3):
ATCAGGAC: -0.137
CGCCGGTC: -0.374
ACCGGTAC: -0.147
CATTCGAC: 0.04
ATTAATAA: 0.471
TATGCTGA: 0.15
CCCTTGAC: -0.198
